Published values of several laboratories.
Every numbered part comes from another study and shows a few of its results, in no order. Positions count from the first letter of the parent shown.

Set 1
Target: Interferon regulatory factor 7, full length, phosphomimetic (IRF7, Homo sapiens, UniProt Q92985, residues 1-503, S471D/S472D/S475D/S476D/S477D/S483D/S484D/S487D)
UniProt Q92985, sequence (whole entry, unmodified, looked up): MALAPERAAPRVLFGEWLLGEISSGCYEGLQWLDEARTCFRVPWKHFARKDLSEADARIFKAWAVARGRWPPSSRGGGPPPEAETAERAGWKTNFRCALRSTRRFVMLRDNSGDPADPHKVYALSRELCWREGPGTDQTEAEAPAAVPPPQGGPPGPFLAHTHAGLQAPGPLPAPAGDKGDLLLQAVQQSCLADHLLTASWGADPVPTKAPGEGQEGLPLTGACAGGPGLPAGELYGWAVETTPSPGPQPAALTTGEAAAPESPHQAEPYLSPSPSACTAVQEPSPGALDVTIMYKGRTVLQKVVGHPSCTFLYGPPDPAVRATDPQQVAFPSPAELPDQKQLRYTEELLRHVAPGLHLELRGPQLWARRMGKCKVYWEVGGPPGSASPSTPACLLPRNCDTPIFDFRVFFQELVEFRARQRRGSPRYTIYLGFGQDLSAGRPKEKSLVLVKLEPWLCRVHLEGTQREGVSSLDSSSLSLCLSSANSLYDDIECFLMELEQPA
Method: protein-binding microarray
Form: double-stranded DNA, one strand shown
Medium: in vitro
Tested at: 2200 nM top
Setting: 60-bp whole probe
Added: salmon DNA 0.4 mg/ml
Baseline: random background probes
Reading: higher = stronger binding
Shared flanks, not repeated: GCCTAGCAC … GTCTTGATTCGCTTGACGCTGCTG
| Sequence | fitted relative affinity |
| --- | --- |
| CTCTGTCTGGGATGTAATTCCGTGCTA | 0.665 z-score |
| TTAGATTTCAGTTCCGACTAGTGCTAG | 1.59 z-score |
| TTAGAGATCAGACTGGATTAGTGCTAG | -0.941 z-score |
| TTAGATTTCACTATCGATTAGTGCTAG | 1.47 z-score |
| GACGGACTGGACACTGGGGAAGTGCTA | -1 z-score |
| TTAGGTATCGACTATCGGTTAGTGCTA | 0.51 z-score |
| TACGGACTGCTTCTCCTGACGTGCTAG | 0.759 z-score |
| GTAGATTTCAGTTCCGATTAGTGCTAG | 2.33 z-score |
| TTAGGTATCGGTTTCGGGTAGTGCTAG | 5.75 z-score |
| TTGGGTTTCCTTTTCCTTTAGTGCTAG | 5.81 z-score |
| ATTTGTTTCCATTTTCTGAAGTGCTAG | 4.72 z-score |
| GACGGTATCCTACCGCTGACGTGCTAG | 0.31 z-score |
| TCCTCTTTCACTGGTCCTCATGTGCTA | 2.85 z-score |
| TTAGGACTGGGGTTTCGGGTAGTGCTA | 1.77 z-score |
| GACGATATCAGCCTCGAGACGTGCTAG | 0.431 z-score |
| TTAGGTTCCGGTTTCGCTTAGTGCTAG | 6.96 z-score |
| TTAGATAACGGGTATCGATTAGTGCTA | -0.234 z-score |
| GAGGGACTGGACTATCGGGACGTGCTA | -1.01 z-score |
| GACGGTTTCCTTCTGCTGACGTGCTAG | 3.19 z-score |
| TTCGGTCTCGGTATCGGTTAGTGCTAG | 1.62 z-score |

Set 2
Target: Histone acetyltransferase KAT6A, winged helix 2, GST fusion (KAT6A, Homo sapiens, UniProt Q92794, residues 85-181)
Method: protein binding microarray
Form: double-stranded DNA, one strand shown
Medium: in vitro
Tested at: not given
Setting: 8-mer, flanks averaged, mean of 2 arrays, mostly near background
Baseline: not given
Reading: higher = stronger binding
Target sequence (chain): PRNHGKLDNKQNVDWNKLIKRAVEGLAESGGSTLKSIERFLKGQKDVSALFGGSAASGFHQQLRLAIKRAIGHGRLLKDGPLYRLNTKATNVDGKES
| Sequence | E-score |
| --- | --- |
| TCTGATAA | 0.0424 |
| GAAGACCC | -0.109 |
| ATACTTAG | -0.054 |
| ATCGGATA | -0.012 |
| CCCCGACG | 0.0679 |
| CCATAGAC | -0.266 |
| CCTATTTC | 0.0205 |
| AACTAGAG | 0.0602 |
| AAACAGCA | 0.103 |
| GGGCGTCA | -0.0197 |
| CCGCTCGC | 0.152 |
| AAGGAAAA | 0.0861 |
| AGCCATAT | -0.0695 |
| AGATCCCC | -0.0181 |
| GAAAATCC | 0.0906 |
| CAACCTCG | 0.0682 |
| CCACTCGC | 0.116 |
| CATGTACG | -0.14 |
| ACGCCTTC | -0.077 |
| AAATAGAT | -0.0492 |
| AAGTGAGC | -0.104 |
| CAACTGTC | -0.0694 |
| GGGTCATA | -0.0242 |
| AACCATGT | -0.059 |

Set 3
Target: PABPC1L2, full length, GST fusion (mouse, UniProt A0ABA7IW68)
Method: RNAcompete
Form: RNA
Medium: in vitro
Tested at: 20 nM
Setting: 7-mer, probes averaged, single round
Baseline: mean of 7-mers
Reading: higher = stronger binding
Residues (chain): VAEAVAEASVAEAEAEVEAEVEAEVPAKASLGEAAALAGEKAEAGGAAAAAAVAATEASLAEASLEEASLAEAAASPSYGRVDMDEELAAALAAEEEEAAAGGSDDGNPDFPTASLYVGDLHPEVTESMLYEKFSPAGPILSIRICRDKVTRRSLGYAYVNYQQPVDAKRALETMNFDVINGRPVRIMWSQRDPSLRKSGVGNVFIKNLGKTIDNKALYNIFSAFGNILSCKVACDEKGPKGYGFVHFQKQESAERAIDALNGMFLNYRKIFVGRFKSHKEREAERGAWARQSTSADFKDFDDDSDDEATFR
| Sequence | 7-mer Z-score |
| --- | --- |
| UACCGGA | -0.199 |
| UUGAUUG | -0.139 |
| CUAUGAC | -0.168 |
| GUUGGGU | -0.115 |
| GAAUUAC | -0.139 |
| GACUCAA | -0.0826 |
| GACCCCG | -0.273 |
| CUUUGCC | -0.514 |
| UAUUCAA | -0.15 |
| AACAUGA | 0.871 |
| UGGUAUC | 0.0315 |
| GCAUCCC | -0.32 |
| CGUGCUC | -0.291 |
| CAACUUU | -0.235 |
| AGAUAUA | -0.157 |
| GUUCUCU | -0.369 |

Set 4
Target: Ras GTPase-activating protein-binding protein 1, full length (G3BP1, Homo sapiens, UniProt Q13283)
UniProt Q13283, sequence (whole entry, looked up): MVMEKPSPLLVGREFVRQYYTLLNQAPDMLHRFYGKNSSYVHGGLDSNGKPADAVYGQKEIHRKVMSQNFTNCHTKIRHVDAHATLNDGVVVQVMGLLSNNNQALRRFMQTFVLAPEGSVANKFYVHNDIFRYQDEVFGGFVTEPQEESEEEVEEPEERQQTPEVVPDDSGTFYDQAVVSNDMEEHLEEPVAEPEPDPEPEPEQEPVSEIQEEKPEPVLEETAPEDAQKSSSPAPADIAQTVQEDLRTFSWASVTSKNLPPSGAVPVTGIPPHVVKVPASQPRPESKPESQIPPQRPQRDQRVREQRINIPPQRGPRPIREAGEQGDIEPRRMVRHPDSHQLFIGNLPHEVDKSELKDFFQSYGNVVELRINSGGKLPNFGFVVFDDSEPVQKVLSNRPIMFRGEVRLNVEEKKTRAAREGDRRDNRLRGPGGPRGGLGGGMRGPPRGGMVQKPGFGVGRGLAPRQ
Method: RNA Bind-n-Seq
Form: RNA
Medium: in vitro
Tested at: 200 nM
Setting: whole 134-nt RNA, ends assumed
Added: 150 mM KCl
Baseline: input library
Reading: higher = stronger binding
Shared flanks, not repeated: GGGAGUUCUACAGUCCGACGAUC … UGGAAUUCUCGGGUGUCAAGG
| Sequence | log2 enrichment |
| --- | --- |
| UGUGCUACACAUCGUAUGUACCGAAUCGGGGUUUUUUUGGGGUUUUUGGGGUUUUUUUGGGGAAAGUAUUAUGUUACGCCGUUCGGAUCU | -0.495 |
| UCAAGUCCUGUGCUACACAUCGUAUGUACCGAAUCGGGUUUGGGUUUGGGUUUGGAAAGUAUUAUGUUACGCCGUUCGGAUCUGCACUUC | -0.573 |
| UGGCCCUGGUGGCAUGCGGGGAGGAAGAGGUGGCCUCAUGGAUCGUGGUGGUCCCGGUGGAAUGUUCAGAGGUGUCCGUGGUGGAGACAG | 0.414 |
| CUGUGCUACACAUCGUAUGUACCGAAUCGGGAAAAAAAGGAAAAAAAGGGGAAAAAAAGGGAAAGUAUUAUGUUACGCCGUUCGGAUCUG | -0.849 |
| AGUCCUGUGCUACACAUCGUAUGUACCGAAUCGGGGUUUUUGGUUUUUGGUUUUUGGGAAAGUAUUAUGUUACGCCGUUCGGAUCUGCAC | -1.13 |
| GUCCUGUGCUACACAUCGUAUGUACCGAAUCGGGGAAAAAGGAAAAAGGGAAAAAGGGGAAAGUAUUAUGUUACGCCGUUCGGAUCUGCA | -0.301 |
| CCUGUGCUACACAUCGUAUGUACCGAAUCGGCCCCCCCGGCCCCCCCGGGCCCCCCCGGGAAAGUAUUAUGUUACGCCGUUCGGAUCUGC | 0.14 |
| CACAGACAACACGCACCCACACAGACACAGAGGGAAGGGGUUGAGAUGGGGACAGGGUGCACAGCAGGGCGGGGUAGGACCCCAGCCCCU | 1.53 |
| ACCAUGCAGGUGGGCAUCUUUGGGAAGUGGGGCAAGGGGGGGAUAGGGAUGGGGGUAACACUUUGGGAACAGGUGGUCCCAGGUCGUUUC | 1.14 |
| UGGGAGGUGGAUUUUGUUUAUUUUUUUAGCUCAUUUCCAGGGGUGGGAAUUUUUUUUUAAUAUGUGUCAUGAGUAAAGUUGUUUUUGAAA | 0.377 |
| CAAGUCCUGUGCUACACAUCGUAUGUACCGAAUCGGAAAAAGGUUUUUGGUUUGGAAAGUAUUAUGUUACGCCGUUCGGAUCUGCACUUC | -1.24 |
| UAACUUUAGAGGAGGAUCUGAUGGAUAUGGCAGUGGACGUGGAUUUGGGGAUGGCUAUAAUGGGUAUGGAGGAGGACCUGGAGGUGGUAA | 0.211 |
| GUCCUGUGCUACACAUCGUAUGUACCGAAUCGGGUUUUUGGGAAAAAGGGUUUUUGGGAAAGUAUUAUGUUACGCCGUUCGGAUCUGCAC | -0.591 |
| UCCUGUGCUACACAUCGUAUGUACCGAAUCGGGGUUUUUUUGGGGUUUUUGGGGAGGGGAAAGUAUUAUGUUACGCCGUUCGGAUCUGCA | 0.634 |

Set 5
Target: CCND1, cyclin fold, Cln2 fusion (human)
Method: yeast growth competition, sequencing
Medium: yeast
Setting: weak parent motif
Baseline: not given
Reading: higher = stronger binding
Starting sequence: LLGL2 docking peptide (human); KSLKKSLRQSFRR
| Change | normalised enrichment score |
| --- | --- |
| KSLKKSARQSFRR [L7A] | -0.167 |
| KSLKKSLRASFRR [Q9A] | 0.854 |
| KSLKKALRQSFRR [S6A] | 0.196 |
| KSLKKSLRQSARR [F11A] | -0.413 |
| KSLKASLRQSFRR [K5A] | 0.782 |
| KSLKKSLRQAFRR [S10A] | 0.467 |

Set 6
Target: ABI1, truncated, D143A, DHFR fusion (Arabidopsis thaliana)
Method: DHFR PCA, deep sequencing
Medium: yeast
Setting: methotrexate growth selection, single substitutions
Added: (+)-ABA 58 µM
Baseline: wild-type fitted maximum
Reading: higher = stronger binding
Starting sequence: PYL1, truncated, DHFR fusion (Arabidopsis thaliana); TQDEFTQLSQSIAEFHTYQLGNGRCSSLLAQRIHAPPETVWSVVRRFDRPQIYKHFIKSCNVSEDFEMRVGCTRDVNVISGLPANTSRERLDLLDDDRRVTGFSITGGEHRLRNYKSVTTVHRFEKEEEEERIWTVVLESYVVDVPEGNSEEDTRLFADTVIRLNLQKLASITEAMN; partner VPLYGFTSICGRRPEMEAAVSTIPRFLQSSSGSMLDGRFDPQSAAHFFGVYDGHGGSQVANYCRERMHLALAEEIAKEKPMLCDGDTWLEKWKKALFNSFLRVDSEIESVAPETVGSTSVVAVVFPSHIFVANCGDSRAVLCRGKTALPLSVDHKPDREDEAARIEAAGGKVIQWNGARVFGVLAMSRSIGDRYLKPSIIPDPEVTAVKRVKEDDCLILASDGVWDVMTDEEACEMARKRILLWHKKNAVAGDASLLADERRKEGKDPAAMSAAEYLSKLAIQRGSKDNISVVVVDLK
| Change | relative binding score [%] |
| --- | --- |
| V44I | 87.9 |
| V161F | 74.6 |
| V121Q | -6.83 |
| N114D | 47 |
| T154G | 2.94 |
| D95T | 8.56 |
| V43C | 51.5 |
| R123G | 93.2 |
| E130P | 105 |
| E38K | 66.4 |
| S150K | 59.8 |
| V62I | 78.4 |
| D95C | 64 |
| D95Q | 46.4 |
| Q167I | 67.9 |
| L93M | 76.6 |
| E139F | -8.69 |
| P146Q | 32.9 |

A few entries again (set 4):
| Sequence | log2 enrichment |
| --- | --- |
| CAAGUCCUGUGCUACACAUCGUAUGUACCGAAUCGGAAAAAGGUUUUUGGUUUGGAAAGUAUUAUGUUACGCCGUUCGGAUCUGCACUUC | -1.24 |
| AGUCCUGUGCUACACAUCGUAUGUACCGAAUCGGGGUUUUUGGUUUUUGGUUUUUGGGAAAGUAUUAUGUUACGCCGUUCGGAUCUGCAC | -1.13 |
| UCAAGUCCUGUGCUACACAUCGUAUGUACCGAAUCGGGUUUGGGUUUGGGUUUGGAAAGUAUUAUGUUACGCCGUUCGGAUCUGCACUUC | -0.573 |
| UGGCCCUGGUGGCAUGCGGGGAGGAAGAGGUGGCCUCAUGGAUCGUGGUGGUCCCGGUGGAAUGUUCAGAGGUGUCCGUGGUGGAGACAG | 0.414 |
| CACAGACAACACGCACCCACACAGACACAGAGGGAAGGGGUUGAGAUGGGGACAGGGUGCACAGCAGGGCGGGGUAGGACCCCAGCCCCU | 1.53 |
| UGGGAGGUGGAUUUUGUUUAUUUUUUUAGCUCAUUUCCAGGGGUGGGAAUUUUUUUUUAAUAUGUGUCAUGAGUAAAGUUGUUUUUGAAA | 0.377 |
| GUCCUGUGCUACACAUCGUAUGUACCGAAUCGGGUUUUUGGGAAAAAGGGUUUUUGGGAAAGUAUUAUGUUACGCCGUUCGGAUCUGCAC | -0.591 |
| CCUGUGCUACACAUCGUAUGUACCGAAUCGGCCCCCCCGGCCCCCCCGGGCCCCCCCGGGAAAGUAUUAUGUUACGCCGUUCGGAUCUGC | 0.14 |
| CUGUGCUACACAUCGUAUGUACCGAAUCGGGAAAAAAAGGAAAAAAAGGGGAAAAAAAGGGAAAGUAUUAUGUUACGCCGUUCGGAUCUG | -0.849 |
| UAACUUUAGAGGAGGAUCUGAUGGAUAUGGCAGUGGACGUGGAUUUGGGGAUGGCUAUAAUGGGUAUGGAGGAGGACCUGGAGGUGGUAA | 0.211 |
| GUCCUGUGCUACACAUCGUAUGUACCGAAUCGGGGAAAAAGGAAAAAGGGAAAAAGGGGAAAGUAUUAUGUUACGCCGUUCGGAUCUGCA | -0.301 |
| UCCUGUGCUACACAUCGUAUGUACCGAAUCGGGGUUUUUUUGGGGUUUUUGGGGAGGGGAAAGUAUUAUGUUACGCCGUUCGGAUCUGCA | 0.634 |
